Measurements pooled from the literature.
Parts stem from different laboratories: compare values within a part only. Substitutions count along the parent as printed.

Set 1
Target: CCND3, cyclin fold, Cln2 fusion (human)
Method: yeast growth competition, sequencing
Medium: yeast
Notes: weak parent motif
Reference: not given
Reading: higher = stronger binding
Starting sequence: DTL docking peptide (human); PSSMRKICTYFHR; partner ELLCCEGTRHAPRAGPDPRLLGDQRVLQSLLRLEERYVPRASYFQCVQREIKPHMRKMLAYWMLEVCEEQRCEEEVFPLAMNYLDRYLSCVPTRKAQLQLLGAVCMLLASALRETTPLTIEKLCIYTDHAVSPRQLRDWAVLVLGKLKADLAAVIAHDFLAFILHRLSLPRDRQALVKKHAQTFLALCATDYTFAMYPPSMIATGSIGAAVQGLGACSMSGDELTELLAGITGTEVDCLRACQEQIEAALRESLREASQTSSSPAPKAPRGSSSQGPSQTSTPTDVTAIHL
| Substitution | normalised enrichment score |
| --- | --- |
| R5A | -0.099 |
| I7A | -0.0909 |
| P1A | -0.446 |
| T9A | 0.0912 |
| M4A | -0.143 |
| K6A | 0.418 |
| H12A | 0.146 |

Set 2
Target: Histone acetyltransferase KAT6A, both winged helices, GST fusion (KAT6A, Homo sapiens, UniProt Q92794, residues 1-181)
Method: protein binding microarray
Molecule type: double-stranded DNA, one strand shown
Medium: in vitro
Concentration: not given
Notes: 8-mer, flanks averaged, mean of 2 arrays, mostly near background
Reference: not given
Reading: higher = stronger binding
Residues (chain): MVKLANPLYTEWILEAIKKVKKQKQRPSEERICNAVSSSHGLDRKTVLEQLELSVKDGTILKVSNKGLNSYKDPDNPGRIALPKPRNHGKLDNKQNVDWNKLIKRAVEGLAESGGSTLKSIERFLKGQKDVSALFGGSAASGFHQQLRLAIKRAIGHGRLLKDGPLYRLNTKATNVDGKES
| Oligonucleotide | E-score |
| --- | --- |
| CGCCAGAC | 0.109 |
| AGCATCAG | -0.0973 |
| AAGGACTG | -0.172 |
| TGGCCGAA | 0.0782 |
| CAAAACTA | -0.143 |
| ACAACTCG | -0.129 |
| ACCCCTCC | -0.193 |
| CAGCTGCA | -0.0433 |
| ACCCTACT | -0.171 |
| AGCTCCAG | -0.167 |
| CTGAAATC | -0.11 |
| AAGCAGGT | -0.139 |
| CCATTCTA | -0.191 |
| TCAGGGGA | -0.22 |
| GTTGCCTA | -0.14 |
| GCGAGTGA | 0.174 |
| ATTTGTAA | -0.123 |
| GAGTCGGC | 0.132 |
| AGACATCT | -0.2 |
| CCACCTTA | -0.249 |
| AATCCGGA | 0.0479 |
| CTGCTTGC | 0.0069 |
| TCAGCGCA | 0.189 |
| GTAGTACA | -0.112 |
| AAGACTCA | -0.0854 |

Set 3
Target: Ras GTPase-activating protein-binding protein 1, full length (G3BP1, Homo sapiens, UniProt Q13283)
UniProt Q13283, sequence (whole entry, looked up): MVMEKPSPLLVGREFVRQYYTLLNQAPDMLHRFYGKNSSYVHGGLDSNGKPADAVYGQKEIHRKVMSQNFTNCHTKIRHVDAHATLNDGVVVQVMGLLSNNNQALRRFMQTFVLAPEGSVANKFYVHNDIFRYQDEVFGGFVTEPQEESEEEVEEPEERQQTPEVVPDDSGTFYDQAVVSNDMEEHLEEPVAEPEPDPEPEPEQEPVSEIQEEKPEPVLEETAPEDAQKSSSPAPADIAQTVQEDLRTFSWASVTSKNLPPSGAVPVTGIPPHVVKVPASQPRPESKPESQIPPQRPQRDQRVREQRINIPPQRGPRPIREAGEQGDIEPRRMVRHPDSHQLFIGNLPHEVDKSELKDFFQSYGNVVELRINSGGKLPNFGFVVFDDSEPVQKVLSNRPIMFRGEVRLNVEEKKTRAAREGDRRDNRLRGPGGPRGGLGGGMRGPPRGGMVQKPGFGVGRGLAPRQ
Method: RNA Bind-n-Seq
Molecule type: RNA
Medium: in vitro
Concentration: 200 nM
Notes: whole 134-nt RNA, ends assumed
Added: 150 mM LiCl
Reference: input library
Reading: higher = stronger binding
Each molecule: 7-deaza-guanosine replaces G
Shared flanks, not repeated: GGGAGUUCUACAGUCCGACGAUC … UGGAAUUCUCGGGUGUCAAGG
| Oligonucleotide | log2 enrichment |
| --- | --- |
| ACUAUGCAGGUGGGCAUCUUUGGGAAGUGGGGCAAGGGGGGGAUAGGGAGGGGGGUAACACUUUGGGAACAGGUGGUCCCAGGUCGUUUC | 0.162 |
| UAACUUUGGAGGAGGAUCUGAUGGAUAUGGCAGUGGACGUGGAUUUGGGGAUGGCUAUAAUGGGUAUGGAGGAGGACCUGGAGGUGGCAA | -0.0946 |
| AAGUCCUGUGCUACACAUCGUAUGUACCGAAUCAAACCCAAACCCCCAAAUUUAAAAAAGUAUUAUGUUACGCCGUUCGGAUCUGCACUU | 1.12 |
| CCUGUGCUACACAUCGUAUGUACCGAAUCGGGGAAAAAAAGGGGUUUUUUUGGGGAGGGGAAAGUAUUAUGUUACGCCGUUCGGAUCUGC | -0.378 |
| UGGGAGGUGGAUUUUGUUUAUUUUUUUAGCUCAUUUCCAGGGGUGGGAAUUUUUUUUGAAUAUGUGUCAUGAAUAAAGUUGUUUUUGAAA | -0.502 |
| UAACUUUAGAGGAGGAUCUGAUGGAUAUGGCAGUGGACGUGGAUUUGGGGAUGGCUAUAAUGGGUAUGGAAGAGGACCUGGAGGUGGCAA | -0.311 |
| CACAGACAACACGCACCCACACAGACACAGAGGGAAGGGGUUGGGAUGGGGACAGGGUGCACAGCAGGGCGGGGUAGGGCCCCAGCCCCU | 0.365 |
| AAGUCCUGUGCUACACAUCGUAUGUACCGAAUCGGUUUUGGGUUUUGGGGUUUUGGAAAGUAUUAUGUUACGCCGUUCGGAUCUGCACUU | -0.356 |

Set 4
Target: RNA binding protein fox-1 homolog 2, RRM domain, GST-SBP tag (RBFOX2, Homo sapiens, UniProt O43251-10, residues 100-194)
Method: RNA Bind-n-Seq
Molecule type: RNA
Medium: in vitro
Concentration: 365 nM
Notes: natural RNA segment, single round, ends assumed
Reference: no-protein control
Reading: higher = stronger binding
Shared flanks, not repeated: GGGAGUUCUACAGUCCGACGAUC … UGGAAUUCUCGGGUGCCAA
Target sequence (chain): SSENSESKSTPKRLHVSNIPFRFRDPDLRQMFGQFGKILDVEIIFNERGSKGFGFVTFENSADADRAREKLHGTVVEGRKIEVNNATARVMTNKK
| Oligonucleotide | RBNS enrichment (R) |
| --- | --- |
| UGCAGCCUGAACUCCCUUGAGCAGCGCUAUAAGGGACUUUGCACUUUAAAAAGGGGAUGCCUGUCAGUAAAUCCCCUGUGCAUUGACUAGAACUGGGGGGCUGCGCCCGC | 0.838 |
| AGCGAGGGAAAUGUAUGGAUUAUAUUAAAUGUGGGUUACUACACAAGAGGCCGAACAUUCCAAGUAGCAGAAGAGAGGGUCUCUCAACUCUGCUCCUCACCUGCAGAAGC | 0.232 |
| ACCGUUAAAAUAUGCACUAAGUCUCUUUUUUUUACAAAGGCUGAAUUCAGCAAGGCGCUAACUUGCUUAAAUGUGAAUUACUAACUUCUAAAACUGUAAUUUGAUUCACA | 0.618 |
| UUUCAUUCCCAGAUCCUAAAAUGUUGAAAGAGUGGGAGAAGUUCCAAGAGGAAGCUAAAAACCGAGAUCAUAGGAAAAUUGGCAGGGACCAAGAACUAUAUUUCUUUCAU | 0.384 |
| AAAACUUUAGUGCCAAAAUAGUGGAACUAUUUUGUCAUCUUUUGAGAAAAAAAUAUACAAAGAAGUCAUCUUUUCAUUAAGUGGAUUCCCUGGUUCCUUUCCAGCUGGUU | 0.451 |
| GCUGCACUGCCUUUCCUUGUCUGCAAAGUUGGUUUUGUCCACUCUGACCAAGACCUCUAGUUUUUGGUGGGUAGGGGGUCUCUCUGGUUUCCCCUUCAGCUAUAAUCUCU | 0.346 |
| CAAAUAGUUUAAUGUUUUAGUCAGAGAAAAAAAAAUAUACAAUUAUAUAAUAUCUCAUUUAAUAAGUUUAAUACAUACAAAGAUAAUCUAUAUAUUUUACCAAUUUAAUG | 1.11 |
| GCUGGGAGUCGGCCUUUCCUCUAGUAACCACCACAUGGCUCAGCAUCUGUGCCAAACAUAGGCGCUCCUAGUCUGGUCAGUGCCAAGAGGCUACCAGAACAUGGGGCAGG | 0.477 |

Set 5
Target: Phosphate system positive regulatory protein PHO4, full length, GST-tagged (PHO4, Saccharomyces cerevisiae, UniProt P07270, residues 1-312)
Method: competition protein-binding microarray
Molecule type: double-stranded DNA, one strand shown
Medium: in vitro
Concentration: 2 µM
Notes: whole 60-bp probe, lowest competitor level
Added: Cbf1 competitor, 0.05 µM
Reading: higher = stronger binding
Shared flanks, not repeated: … GTCTTGATTCGCTTGACGCTGCTG
Target sequence (chain): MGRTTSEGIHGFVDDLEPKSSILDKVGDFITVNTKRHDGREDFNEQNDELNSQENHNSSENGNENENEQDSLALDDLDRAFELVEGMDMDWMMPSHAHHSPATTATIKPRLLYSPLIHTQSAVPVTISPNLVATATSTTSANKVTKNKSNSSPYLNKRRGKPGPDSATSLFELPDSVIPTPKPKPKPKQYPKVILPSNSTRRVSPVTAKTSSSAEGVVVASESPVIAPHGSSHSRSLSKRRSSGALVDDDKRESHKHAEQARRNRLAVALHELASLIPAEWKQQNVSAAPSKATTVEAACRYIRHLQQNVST
| Oligonucleotide | fluorescence intensity |
| --- | --- |
| ATGGCCTTTTGGCCTCACATGACAAATACAATCTCG | 6320 a.u. |
| AAGTTATGATATCTGCACGTGGAACACTTCCAATCT | 16800 a.u. |
| CGTCCGAGAGCCCGCGACCTGATCCGACTTCAGGGT | 2870 a.u. |
| ACCCCATTATCTGGAGGCGTGCCGACAGCTCCGTTG | 10800 a.u. |
| CGGGGTTAAGTTTGAACTGTGGGTGGCTTGCAGCAG | 4730 a.u. |
| AGCCCGGGGACTTGCCGCGTGGCACCTTGGGGCGCT | 9240 a.u. |
| ACTATGAGAGCTTGGTGCGTGGCCGAAAGGAATAAA | 9490 a.u. |
| CTTCTGTAAATTTGGCGTGTGGGTGGACGCGCCCCG | 5880 a.u. |
| CCGTTTCTACCAGTACACGTGTAGCCAATTTTATCG | 16200 a.u. |
| CATCATGAAAAGGTCCACGTTGCTGTCGCTGGACGC | 12000 a.u. |
| AGGACCCTCTCTCAACATGTGGGTAATGCGAATCAA | 11800 a.u. |
| CTAACGAAGGTTTTTCACGTGAGTTACAAGCCAAGT | 10900 a.u. |
| GTCTTGTCTCATTGTACAGTGGGTGTCCCCACTTCA | 4770 a.u. |
| AACGGTGCCGGCCGTCACGCTAACGTTTCCACCAAG | 4980 a.u. |
| CCCAAGAACAGGGCCCTCGTGGTCGTCAAATCTGTG | 10400 a.u. |
| TGCGCAACAACTTGTCACCGAACTTTATGTCTAGAA | 2900 a.u. |

Excerpt of the above (set 1):
| Substitution | normalised enrichment score |
| --- | --- |
| H12A | 0.146 |
| I7A | -0.0909 |
| P1A | -0.446 |
| T9A | 0.0912 |
| K6A | 0.418 |
